Results collected from several papers.
Lines come from different studies, so protocols differ. ± gives the spread as reported.

| Structure (SMILES) | cell line | test | setting | IC50 |
| --- | --- | --- | --- | --- |
| Cc1cc(Nc2nc(C[C@@]3(C(=O)O)CCN(Cc4cccc(Cl)c4F)[C@H](C)C3)cc(C)c2F)[nH]n1 | NCI-H1650 | cell growth or viability, ATP luminescence | 5 days | 0.365 µM |
| F[P-](F)(F)(F)(F)F.OCP(CO)CO.OCP(CO)CO.OCP(CO)CO.OCP(CO)CO.[Cu+] | SW480 | cell growth or viability, MTT | 72 h | 1.33 µM |
| CN(C)C(=O)[C@@H](NC(=O)c1cc(-c2ccnn2C)ccc1-c1ccc(C(F)(F)F)cc1)c1cccc(C(F)(F)F)c1 | KHYG-1 with Ba/F3-MICA cells | NKG2D-mediated cell killing, inhibitor | 6 h | 0.4 ± 0.08 µM |
| Cc1cc(C)c(-n2ccn(-c3c(C)cc(C)cc3C)c2=[Se])c(C)c1.[Cl][Au] | human ovarian cancer cells | cell viability, MTT | 72 h | 1.8 ± 0.3 µM |
| CNC(=O)c1cc(Oc2ccc(NC(=O)c3cc(-c4ccc(COC(=O)CCC(=O)OC5OC6OC7(C)CCC8C(C)CCC(C5C)C68OO7)cc4)ccn3)cc2)ccn1 (stereo not shown) | L02 | cell growth or viability, MTT | 72 h | 48.1 µM |
| CC1=CC(C)=[N+]2C1=Cc1ccc(CCC(=O)NCC3C[NH][Pt]([Cl])([Cl])[NH]3)n1[B-]2(F)F (stereo not shown) | KB 3-1 | cell growth or viability, ATP luminescence | – | 36.9 µM |
| Cc1cc(C)c(N2CCN(c3c(C)cc(C)cc3C)C2=[Se])c(C)c1.[Cl][Ag] | human ovarian cancer cells | cell viability, MTT | 72 h | 1.6 ± 0.4 µM |
| O=C(Cc1ccc2ccccc2c1)N[C@H](Cc1ccccc1)C(=O)N[C@H](Cc1ccc(O)cc1)C(=O)N[C@H](Cc1ccccc1)C(=O)N[C@H](Cc1ccc(O)cc1)C(=O)O | T98G | cell growth or viability, MTT | – | > 500 µg/mL |
| COCC12CN(C)C3C4C(OC)C1C3(C(OC)CC2O)C1CC2(O)C(OC)C(O)C4(O)C1C2OC(=O)c1ccccc1 (stereo not shown) | NCI-H460 | cell growth or viability, MTT | – | 22.3 µM |
| C1N2CN3CN1CP(C2)C3.CC(C)OC(=O)C(n1cccn1)n1cccn1.F[P-](F)(F)(F)(F)F.[Cu+] | LoVo | cell growth or viability, MTT | 72 h | 11 µM |
| CCN1CC2(COC)CCC(OC)C34C5CC6C(OC)CC(O)(C(CC23)C14)C5C6OC(C)=O (stereo not shown) | NCI-H460 | cell growth or viability, MTT | – | 22.2 µM |
| C(#C[P+](c1ccccc1)(c1ccccc1)c1ccccc1)c1ccccc1 | human melanoma cell lines | cell viability, MTT | 72 h | 0.5 to 1.5 µM |
| CC(=O)OC[C@H]1O[C@@H](NC(=O)NC(=O)[C@@H](C)Cc2ccc(C(C)C)cc2)[C@H](OC(C)=O)[C@@H](OC(C)=O)[C@@H]1OC(C)=O | Vero | viral replication | range over three viruses | 45 to 58 µM |
| C[C@H]1C(OCCCCC[P+](c2ccccc2)(c2ccccc2)c2ccccc2)O[C@@H]2O[C@@]3(C)CCC4[C@H](C)CCC1[C@]42OO3 (stereo partly shown) | J82 | cell growth or viability, MTT | 72 h | 0.179 µM |
| CCN1CC2(COC)CCC(O)C34C5CC6C(OC)CC(O)(C(CC23)C14)C5C6O (stereo not shown) | HBE | cell growth or viability, MTT | – | 21.4 µM |
| [Ga+3].[O-]c1ccc(Br)c2cccnc12.[O-]c1ccc(Br)c2cccnc12.[O-]c1ccc(Br)c2cccnc12 | L02 | cell growth or viability, MTT | 72 h | 30 µM |
| COc1c(O)c(-c2c(O)c(OC)c(OC)c3c2ccc2cc(O)ccc23)c2c(c1OC)-c1ccc(O)cc1CC2 | human Fibroblast | cell growth or viability, CCK-8 | 24 h | 9.69 µM |
| CNC(=O)c1cc(Oc2ccc(NC(=O)c3ccc(-c4cccc(OC(=O)CCC(=O)OC5OC6OC7(C)CCC8C(C)CCC(C5C)C68OO7)c4)cn3)cc2)ccn1 (stereo not shown) | L02 | cell growth or viability, MTT | 72 h | 30.7 µM |
| NCCCC[C@@H](NC(=O)[C@H](Cc1c[nH]cn1)NC(=O)[C@H](CO)NC(=O)[C@H](Cc1c[nH]c2ccccc12)NC(=O)[C@H](Cc1c[nH]cn1)NC(=O)[C@@H]1CCC(=O)N1)C(=O)N[C@@H](Cc1c[nH]c2ccccc12)C(=O)N[C@@H](Cc1ccc(O)cc1)C(=O)N1CCC[C@H]1C(=O)NCC(N)=O | WPE-1-NB26-3 | cell growth, inhibitor, sulforhodamine B staining | four days | 0.0011 ± 0.0008 µM |
| [Cl][Au-][P+](c1ccccc1)(c1ccccc1)c1cc[cH-]c1.[Cl][Au-][P+](c1ccccc1)(c1ccccc1)c1cc[cH-]c1.[Cl][Ti+2][Cl] | A498 | cell growth or viability, XTT | – | 16.3 µM |
| C=C(CO)[C@H]1Cc2c(ccc3c2O[C@@H]2COc4cc(OC)c(OC)cc4[C@]2(O)C3=O)O1 | HUVEC | cell growth or viability, MTT | 72 h | > 50 µM |
| COc1ccnc(-c2cc(OC)ccn2)c1.[C-]#[O+].[C-]#[O+].[C-]#[O+].[Re+] | H460 | cell viability | – | 9 ± 5 µM |

| Structure (SMILES) | cell line | test | setting | IC50 |
| --- | --- | --- | --- | --- |
| C=CC12COC(=O)C(=C)C1C(O)C1C(=C)C(=O)OC1C2 (stereo not shown) | JIMT-1 | cell growth or viability, MTT | 72 h | 2.2 µM |
| CC(C)[C@@H]1NC(=O)[C@H](C)OC(=O)[C@@H](C(C)C)NC(=O)[C@@H](C(C)C)OC(=O)[C@H](C(C)C)NC(=O)[C@H](C)OC(=O)[C@@H](C(C)C)NC(=O)[C@@H](C(C)C)OC(=O)[C@H](C(C)C)NC(=O)[C@H](C)OC(=O)[C@@H](C(C)C)NC(=O)[C@H](C)OC1=O | SHG-44 | cell growth or viability, SRB | 72 h | 1.4 µM |
| CC(C)c1cccc(C(C)C)c1-n1c[n+](-c2c(C(C)C)cccc2C(C)C)c2c1-c1cccc3cccc-2c13.[Cl][Pd-]([Cl])[CH2]C=Cc1ccccc1 | 2008 | cell growth, MTT | 72 h | 7.2 ± 0.8 µM |
| CCN1CC2(COC)CCC(OC)C34C5CC6C(OC)C(O)C(O)(C(CC23)C14)C5C6OC(=O)c1ccccc1 (stereo not shown) | NCI-H460 | cell growth or viability, MTT | – | 22.3 µM |
| C[C@H]1C(OCCCCCCCCCCCC[P+](c2ccccc2)(c2ccccc2)c2ccccc2)O[C@@H]2O[C@@]3(C)CCC4[C@H](C)CCC1[C@]42OO3 (stereo partly shown) | J82 | cell growth or viability, MTT | 72 h | 0.0821 µM |
| CCN1CC2(COC)CCC(OC)C34C5CC6(O)C(OC)C(O)C(O)(C5C6OC(=O)c5ccccc5)C(C(OC)C23)C14 (stereo not shown) | NCI-H460 | cell growth or viability, MTT | – | 24.1 µM |
| CCOP(=O)(OCC)OCCCCOC(=O)CC1=C(C)C(=Cc2ccc([S+](C)[O-])cc2)c2ccc(F)cc21 (stereo not shown) | A549 EGFR siRNA knockdown | cell viability | 24 h | 68 µM |
| CCOC12C(O)C(OC)C3(O)CC(C1C3OC(=O)c1ccccc1)C13C(OC)CC(O)C4(COC)CN(CC)C1C2C(OC)C43 (stereo not shown) | NCI-H460 | cell growth or viability, MTT | – | 18.3 µM |
| C[C@H]1[C@H](OC(=O)CCC(=O)Oc2ccc(-c3cc(=S)ss3)cc2)O[C@@H]2O[C@@]3(C)CC[C@H]4[C@H](C)CC[C@@H]1[C@@]24OO3 | L02 | cell growth or viability, CCK-8 | 72 h | 9.86 µM |
| O=C(Cc1ccc2ccccc2c1)N[C@H](Cc1ccc(O)cc1)C(=O)N[C@H](Cc1ccccc1)C(=O)N[C@H](Cc1ccccc1)C(=O)N[C@H](Cc1ccc(OP(=O)(O)O)cc1)C(=O)O | T98G | cell growth or viability, MTT | – | 301 µg/mL |
| CN(C)C(=O)[C@@H](NC(=O)c1cnccc1-c1ccc(C(F)(F)F)cc1)c1cccc(C(F)(F)F)c1 | KHYG-1 with Ba/F3-MICA cells | NKG2D-mediated cell killing, inhibitor | 6 h | 0.6 ± 0.2 µM |
| COc1ccc(/C=C/C(=O)CC(=O)/C=C/c2ccc(OC)c(OC)c2)cc1OC | LN-229 | cell growth or viability, MTS | 24 h | 19 µM |
| COCC12CCC(OC)C34C5CC6(O)C(OC)C(O)C(O)(C5C6OC(=O)c5ccccc5)C(C(OC)C13)C4N(C)C2 (stereo not shown) | HBE | cell growth or viability, MTT | – | 30.7 µM |
| Cc1cc(C)n(C(C(=O)OC(C)C)n2nc(C)cc2C)n1.F[P-](F)(F)(F)(F)F.[Cu+].c1ccc(P(c2ccccc2)c2ccccc2)cc1 | BCPAP | cell growth or viability, MTT | 72 h | 8.8 µM |
| CCN1CC2(COC)CCC(O)C34C5CC6C(OC)CC(O)(C5C6O)C(C(OC)C23)C14 (stereo not shown) | NCI-H460 | cell growth or viability, MTT | – | 12.7 µM |
| C[C@H]1C(OCCCCCCC[P+](c2ccccc2)(c2ccccc2)c2ccccc2)O[C@@H]2O[C@@]3(C)CCC4[C@H](C)CCC1[C@]42OO3 (stereo partly shown) | J82 | cell growth or viability, MTT | 72 h | 0.115 µM |
| CN(C)C(=O)[C@@H](NC(=O)c1ccccc1-c1ccc(C(F)(F)F)cc1)c1cccc(C(F)(F)F)c1 | KHYG-1 with Ba/F3-MICA cells | NKG2D-mediated cell killing, inhibitor | 6 h | 1.6 ± 0.4 µM |
| C[C@H]1C(OCCCC[P+](c2ccccc2)(c2ccccc2)c2ccccc2)O[C@@H]2O[C@@]3(C)CCC4[C@H](C)CCC1[C@]42OO3 (stereo partly shown) | J82 | cell growth or viability, MTT | 72 h | 0.189 µM |
| CCN1CCNC1=[S+][Ag-3]([O][N+](=O)[O-])([P+](c1ccccc1)(c1ccccc1)c1ccccc1)[P+](c1ccccc1)(c1ccccc1)c1ccccc1 | MG-63 | MTT | 24 h | 13.2 µM |
| C[C@H]1[C@H](OC(=O)CCC(=O)OCCc2ccc(OC(=O)CCC(=O)O[C@@H]3O[C@@H]4O[C@@]5(C)CC[C@H]6[C@H](C)CC[C@@H]([C@H]3C)[C@@]46OO5)cc2)O[C@@H]2O[C@@]3(C)CC[C@H]4[C@H](C)CC[C@@H]1[C@@]24OO3 | C3PV | cell growth or viability, MTT | 24 h | 6.1 µM |
| CC1(C)OC2C(COP(=O)(O)O)OC(n3cnc4c(=O)[nH]c(NC(=O)c5ccccc5)nc43)C2O1 (stereo not shown) | Vero | cell growth or viability | – | > 100 µM |
